Results collected from several papers.
Compare with care: the assays were run in different laboratories. Numbers after ± are the reported error.
ALB: Albumin (ALB, Bos taurus, UniProt P02769)

CCc1cc(C)nc2c(CC(=O)N(CC)CC)c(-c3ccc(OCC[18F])cc3)nn12
k3 rate constant (Tspo (Rattus norvegicus, UniProt P16257); two-tissue compartment model; rat C6 glioma model, tumor; 60 min dynamic PET): 0.565 ± 0.075 min⁻¹

COC(=O)c1cnc(-c2cnccn2)cc1C(=O)OC.COC(=O)c1cnc(-c2cnccn2)cc1C(=O)OC.F[P-](F)(F)(F)(F)F.[Ag+]
binding constant (ALB; fluorescence quenching): 3.08e+06 M⁻¹

O=C1c2sc(-c3ccc(N4CCC(CO)CC4)nc3F)nc2CCN1c1cccnc1
binding to tau tangles (autoradiography; human, AD entorhinal cortex tissue; 20 nM): no binding

Nc1ncnc2c1ncn2C1OC(COP(=O)(O)OP(=O)(O)OCC2OC(O)C(O)C2O)C(O)C1O (stereo not drawn)
Hill coefficient (TRPM2 (Nematostella vectensis, UniProt A7T1N0); activator, inside-out patch clamp; Xenopus oocytes, full-length TRPM2; with: 125 µM Ca2+): 1.4 ± 0.1

CC(=O)N[C@@H](CC(=O)O)C(=O)N[C@H](C(=O)N[C@@H](CCCCN)C(=O)N[C@@H](CC(N)=O)C(=O)N[C@@H](CCN1C(=O)c2ccc(N(C)C)cc2C1=O)C(=O)N[C@@H](CCCCN)C(=O)N[C@@H](CCC(N)=O)C(=O)N[C@H](C(=O)N[C@@H](CO)C(=O)N[C@H](C(=O)O)C(C)C)[C@@H](C)O)[C@@H](C)O
relative fluorescence increase (Disks large homolog 4, PDZ1-2 domains (Homo sapiens, UniProt P78352); PDZ domain binding, fluorescence emission intensity; PSD-95 PDZ1-2 tandem construct; 4-DMAP-Dab at position -5; relative to: probe without PDZ domain): 4.5

CCCCCCOc1ccc(C(=O)OCC[N+]2(C)CC=CCC2)cc1 (stereo not drawn)
dissociation half-time (CHRM4 (Homo sapiens, UniProt P08173); recovery of [3H]NMS binding after washing; membranes; 100 µM): 4.3 ± 0.4 h

Oc1c(C(Nc2nc3ccccc3s2)c2cccc(OCc3ccccc3)c2)ccc2cccnc12 (stereo not drawn)
kcat (Genome polyprotein, NS2B-NS3 protease (Dengue virus type 2, UniProt P14340); substrate, tetrapeptide cleavage; 3 µM, 37 °C, without ZnCl2): 0.0972 ± 0.0029 s⁻¹

C[n+]1cn(C2OC(COP(=O)(O)OP(=O)([O-])OP(=O)(O)OCC3OC(n4cnc5c(=O)[nH]c(N)nc54)C(O)C3O)C(O)C2O)c2nc(NCc3ccccc3)[nH]c(=O)c21 (stereo not drawn)
reverse cap orientation (NUDT16 (Homo sapiens, UniProt Q96DE0); measured: analog-capped RNA): ~30%

C[n+]1cn(C2OC(COP(=O)(O)OP(=O)([O-])C(F)(F)P(=O)(O)OP(=O)(O)OCC3OC(n4cnc5c(=O)[nH]c(N)nc54)C(O)C3O)C(O)C2O)c2nc(N)nc(O)c21 (stereo not drawn)
IC50 (cap-dependent translation, inhibitor; rabbit reticulocyte lysate; 60 min, 30 °C, no preincubation): 2950 ± 320 nM

CCC(CC)O[C@@H]1C=C(C(=O)OC(OC(=O)[C@@H](N)C(C)C)C(C)C)C[C@H](NC(=N)N)[C@H]1NC(C)=O (single isomer, unassigned)
Km (SLC15A1 (Homo sapiens, UniProt P46059); transporter uptake, substrate; pH 6, oocytes): 7300 µM

C[C@H](CCC(=O)NCC(=O)O)[C@H]1CC[C@H]2[C@@H]3C(=O)C[C@H]4C[C@H](O)CC[C@]4(C)[C@H]3CC[C@]12C
Km (SLC10A1 (Homo sapiens, UniProt Q14973); uptake, substrate; HEK293 expressing SLC10A1; sodium-dependent): 20.7 ± 3.9 µM

Cc1c(C(=O)Nc2ccn(C)n2)ncn1Cc1cccc(C(F)(F)F)c1
pS129-positive puncta (immunohistochemistry, measured: human αS aggregates; human WT αS transgenic mouse, cortex; dose not given; relative to: placebo): decreased

O=C1c2sc(-c3ccc(N4CCC(F)C4)nc3F)nc2CCN1c1cccnc1 (stereo not drawn)
binding to tau tangles (autoradiography; human, AD entorhinal cortex tissue; 20 nM): no binding

Cc1cc(-c2ccc(NC(=O)[C@H](CCCCNC(=O)CCOCCOCCC(=O)N[C@H](Cc3ccccc3)C(=O)N[C@H]3CSSC[C@@H](C(=O)N[C@H](C(=O)O)[C@@H](C)O)NC(=O)[C@H]([C@@H](C)O)NC(=O)[C@H](CCCCN)NC(=O)[C@@H](Cc4c[nH]c5ccccc45)NC(=O)[C@H](Cc4ccc(O)cc4)NC3=O)NC(=O)CN3CCN(CC(=O)O)CCN(CC(=O)O)CCN(CC(=O)O)CC3)c(C)c2)ccc1N=Nc1ccc2c(S(=O)(=O)O)cc(S(=O)(=O)O)c(N)c2c1O [lutetium-177 labelled]
initial uptake (patients with metastatic NETs, lymph node metastases): 12 % injected activity

Cc1cc(CNCCCCCC(=O)NO)ccc1OCc1cccc(-c2ccccc2)c1C
mRNA level (mouse bone marrow-derived macrophages; real-time PCR, measured: Arg1; concentration not given, 24 h, with: IL-4 and IL-13): decreased

COc1cc(CNC(=O)C[C@H](C)CCC=C(C)C)ccc1OCc1cn(-c2ccc(F)cc2)nn1
growth percent (IGROV-1 ovarian cancer cells; SRB; 10 µM, 48 h): 97.4%

O=C(O)CCC(NC(=O)NC(CCCCNC(=O)C(Cc1ccc2ccccc2c1)NC(=O)C1CCC(CNC(=O)C(CCCCN(Cc2nccn2CC(=O)O)Cc2nccn2CC(=O)O)NC(=O)OCC2c3ccccc3-c3ccccc32)CC1)C(=O)O)C(=O)O (stereo not drawn)
internalized amount (FOLH1 (Homo sapiens, UniProt Q04609); LNCaP; 30 nM, 45 min, 177Lu-labelled): 0.46 ± 0.12%

Cc1ccccc1-c1cc(N2CCN(Cc3ccccc3)CC2)ccc1N(C)C(=O)C(C)(C)c1cc(C(F)(F)F)cc(C(F)(F)F)c1
affinity ratio (TACR1 (Homo sapiens, UniProt P25103); relative to: pH 6.0 over pH 7.4): ~20 fold

CC(=O)N[C@H](C(=O)N[C@@H](CC(C)C)C(=O)N[C@@H](CC(=O)O)C(=O)N[C@@H](CO)C(=O)N[C@@H](Cc1ccccc1)C(=O)N[C@@H](CCCCN)C(=O)N[C@H](C(=O)N[C@@H](CO)C(=O)N[C@@H](Cc1ccccc1)C(=O)N[C@@H](CC(C)C)C(=O)N[C@@H](CO)C(=O)N[C@@H](C)C(=O)N[C@@H](CC(C)C)C(=O)N[C@@H](CCC(=O)O)C(=O)N[C@@H](CCC(=O)O)C(=O)N[C@@H](Cc1ccc(O)cc1)C(=O)N[C@H](C(=O)N[C@@H](CCCCN)C(=O)N[C@@H](CCCCN)C(=O)N[C@@H](CC(C)C)C(=O)N[C@@H](CC(N)=O)C(=O)N[C@H](C(=O)N[C@@H](CCC(N)=O)C(N)=O)[C@@H](C)O)[C@@H](C)O)C(C)C)C(C)C
cholesterol efflux (ABCA1 (Homo sapiens, UniProt O95477); BHK transfected with ABCA1; 18 h): no effect

CCCCCCCCCCCC(=O)Nc1ccccc1SSc1ccccc1NC(=O)CCCCCCCCCCC
enthalpy change (ALB; binding, van't Hoff; concentration not given, 298-313 K): -154 kcal/mol

Nc1ncnc2c1ncn2[C@@H]1O[C@H](CO)[C@@H](O[C@H]2O[C@H](CO)[C@@H](OP(=O)(O)O)[C@H](OP(=O)(O)O)[C@H]2O)[C@H]1O
Hill coefficient (Inositol 1,4,5-trisphosphate-gated calcium channel ITPR1, IP3-binding core (Itpr1, Rattus norvegicus, UniProt P29994, R568Q); binding, 3H-IP3 competition; IP3-binding core IBC^R568Q): 1.1 ± 0.3

Cc1nn(-c2ccc(S(=O)(=O)N[C@H](CO)CC(C)C)cc2)c2nn3nnnc3nc12
necrotic cells (HT-29; PI/Hoechst staining; 1 µM, 24 h): 21 ± 1.4%

CNc1ccccc1C(=O)O[C@H]1C[C@H](n2cnc3c(N)ncnc32)O[C@@H]1COP(=O)(O)OP(=O)(O)O
ΔG of pocket step (Unconventional myosin-Va (Gallus gallus, UniProt Q02440, D297C/G292C/I296C/S293C/V295G); van't Hoff analysis; with: 10 mM Mg2+): 1 ± 0.6 kcal/mol

NS(=O)(=O)c1ccc(-n2nc(C(F)(F)F)cc2-c2ccc(F)cc2F)cc1
IC20 (Cyclooxygenase-2 (Canis lupus familiaris, UniProt Q8SPQ9); PGE2 formation, inhibitor; dog whole blood; 24 h, with: LPS): 800 nM

COc1cc(C(=O)NC2CCC(N3CCN(CC4CCC5(CCCC5)C4)CC3)CC2)c(F)cc1Nc1ncc2c(n1)N(C1CCCC1(F)F)CC(F)(F)C(=O)N2C (stereo not drawn)
inhibition (CDK5 (Homo sapiens, UniProt Q00535); cell-free assay, TR-FRET; 10 µM): 0.68%

CC(=O)[O-].O.O.O.O.[Ni+2].[O-]c1ccc(Br)cc1C=NCCN1CCOCC1
absorption band blue shift (ALB; binding, UV absorption titration, measured: BSA band at 278 nm; pH 7.2, 25 °C; relative to: free BSA): 6 nm

O=C(Nc1ccc(N2C(=O)c3ccc(Cl)cc3C2=O)c(Cl)c1)c1ncccc1Cl
Emax (GRM1 (Homo sapiens, UniProt Q13255); calcium signal, positive allosteric modulator; T-REx-293): 86%

C=C1C(=O)O[C@H]2[C@H]1CCC(COC(=O)CCCCCCCCCCCNC(=O)CCCC[C@@H]1SC[C@@H]3NC(=O)N[C@@H]31)=C1CC[C@@](C)(O)[C@@H]12
enrichment ratio (ARF GTPase-activating protein GIT2 (GIT2, Homo sapiens, UniProt Q14161); competitive pull-down LC-MS/MS, measured: GIT2; M9-ENL1 cell lysate; with: probe 10 µM; relative to: MCL-treated control): 5.8 fold

CC(=O)OCOC(=O)CN(CC(=O)OCOC(C)=O)Cc1c(OC(C)=O)ccc2c1Oc1c(ccc(OC(C)=O)c1CN(CC(=O)OCOC(C)=O)CC(=O)OCOC(C)=O)C21OC(=O)c2ccccc21
combination index (A2780cis; measured: caspase-3/7; with: rucaparib; lower = more synergy): < 1

O=C(NCC1CO1)Oc1ccc([N+](=O)[O-])cc1 (racemic)
signal to background ratio (Epoxide hydrolase 1 (EPHX1, Homo sapiens, UniProt P07099); substrate, absorbance; 50 µM, pH 9.0, 37 °C, human enzyme): 1

C[n+]1cn(C2OC(COP(=O)(O)OP(=O)([O-])C(Cl)(Cl)P(=O)(O)OP(=O)(O)OCC3OC(n4cnc5c(=O)[nH]c(N)nc54)C(O)C3O)C(O)C2O)c2nc(N)nc(O)c21 (stereo not drawn)
IC50 (cap-dependent translation, inhibitor; rabbit reticulocyte lysate; 60 min, 30 °C, no preincubation): 1340 ± 150 nM

NS(=O)(=O)Nc1ncnc(OCCOc2ncc(Br)cn2)c1-c1ccc(Br)cc1
Km (M6 formation; female Sprague-Dawley rat, liver microsomes; 150 mg/kg daily for 4 weeks): 1.7 ± 0.8 µM

CCc1nc2cc3ccccc3cc2cc1C(=O)N1CCC[C@H]1C(=O)N[C@@H](C/C=C\C[C@H](NC(=O)[C@@H]1CCCN1C(=O)c1cc2cc3ccccc3cc2nc1CC)C(=O)N[C@@H](CCCCN)C(=O)NCCCN)C(=O)N[C@@H](CCCCN)C(=O)NCCCN
residence time ((CUG)2 RNA; SPR): 757 s

CC(=O)Nc1cccc(CNC(=O)c2cnc3ccccc3c2C(F)(F)F)c1
histone acetyltransferase activity (KAT5 (Homo sapiens, UniProt Q92993); activator; 20 µM): increased

CC(=O)N[C@@H](CC(=O)O)C(=O)N[C@@H](CCC(=O)O)C(=O)N[C@H](C(=O)N[C@@H](CC(=O)O)C(=O)Nc1ccc2c(C)cc(=O)oc2c1)C(C)C
Vmax (Caspase-1 (CASP1, Homo sapiens, UniProt P29466); substrate cleavage, substrate, fluorogenic AMC release; enzyme 0.25 activity units/µL): 44.7 ± 15.5 RFU/min

CC(=O)c1cnc(N)nc1N1CC[C@H]1c1nn2ccc(Cl)c2c(=O)n1-c1ccccc1
binding (Phosphatidylinositol 4,5-bisphosphate 3-kinase catalytic subunit beta isoform (Rattus norvegicus, UniProt Q9Z1L0); KiNativ; rat leukocyte lysate; 1 µM, 0.25 h): 46%

CCCC[C@H](NC(=O)[C@@H](NC(=O)[C@@H](N)Cc1ccc(O)cc1)C(C)C)C(=O)NCC(=O)N[C@@H](Cc1c[nH]cn1)C(=O)N[C@@H](Cc1ccccc1)C(=O)N[C@@H](CCCNC(=N)N)C(=O)N[C@@H](Cc1c[nH]c2ccccc12)C(=O)N[C@@H](CC(=O)O)C(=O)N[C@@H](CCCNC(=N)N)C(=O)N[C@@H](Cc1ccccc1)C(=O)NCC(N)=O
cAMP accumulation (MC4R (Homo sapiens, UniProt P32245); agonist; HEK293; 10 µM; relative to: MT-II): 105%

[3H]C1CCN(S(=O)(=O)c2cc(Cl)c(OC)cc2Cl)CC1[3H] (stereo not drawn)
specific binding (Melanopsin (OPN4, Homo sapiens, UniProt Q9UHM6); CHO cells expressing Opn4, membranes; concentration not given, with: radioligand 300 pM): 94%

CC1(C)CCN(Cc2ccc(C(=O)NC[C@]3(O)CCCN(c4cc(NCc5ccccc5)ncn4)C3)c(O)c2)CC1
remaining activity (ABL1 (Homo sapiens, UniProt P00519); kinase activity, radiometric; 10 µM, with: 10 µM ATP): 74%
